Measured values gathered from unrelated publications.
Numbered parts are unrelated; each lists some results of a single study. Values joined by “and” are separate records of one study, mostly repeats; a detail may differ.
UniProt Q2M2I8, sequence (whole entry, looked up): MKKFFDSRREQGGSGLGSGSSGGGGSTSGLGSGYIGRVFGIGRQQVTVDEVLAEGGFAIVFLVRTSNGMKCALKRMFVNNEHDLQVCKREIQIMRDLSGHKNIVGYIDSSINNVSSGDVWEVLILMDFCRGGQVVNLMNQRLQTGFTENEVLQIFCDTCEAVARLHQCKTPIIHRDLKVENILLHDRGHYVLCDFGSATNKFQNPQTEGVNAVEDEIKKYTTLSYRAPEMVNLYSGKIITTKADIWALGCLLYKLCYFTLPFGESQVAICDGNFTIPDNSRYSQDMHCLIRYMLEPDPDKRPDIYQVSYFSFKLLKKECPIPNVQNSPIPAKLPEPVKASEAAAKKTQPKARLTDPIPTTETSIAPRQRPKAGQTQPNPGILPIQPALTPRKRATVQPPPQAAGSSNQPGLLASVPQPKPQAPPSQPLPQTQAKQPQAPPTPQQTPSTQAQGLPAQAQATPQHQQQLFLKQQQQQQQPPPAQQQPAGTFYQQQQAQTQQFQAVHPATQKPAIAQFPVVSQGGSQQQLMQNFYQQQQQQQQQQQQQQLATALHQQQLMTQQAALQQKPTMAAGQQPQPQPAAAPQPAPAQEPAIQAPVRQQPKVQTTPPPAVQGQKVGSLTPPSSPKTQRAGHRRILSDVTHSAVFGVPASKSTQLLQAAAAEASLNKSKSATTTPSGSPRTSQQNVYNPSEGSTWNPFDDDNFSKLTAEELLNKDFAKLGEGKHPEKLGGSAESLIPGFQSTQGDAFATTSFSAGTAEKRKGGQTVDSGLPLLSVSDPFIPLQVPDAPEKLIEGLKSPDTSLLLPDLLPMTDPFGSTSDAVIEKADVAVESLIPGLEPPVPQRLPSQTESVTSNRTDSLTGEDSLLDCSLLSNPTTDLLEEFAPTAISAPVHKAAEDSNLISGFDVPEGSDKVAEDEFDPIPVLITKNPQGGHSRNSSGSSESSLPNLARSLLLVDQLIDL
UniProt Q08345, sequence (whole entry, looked up): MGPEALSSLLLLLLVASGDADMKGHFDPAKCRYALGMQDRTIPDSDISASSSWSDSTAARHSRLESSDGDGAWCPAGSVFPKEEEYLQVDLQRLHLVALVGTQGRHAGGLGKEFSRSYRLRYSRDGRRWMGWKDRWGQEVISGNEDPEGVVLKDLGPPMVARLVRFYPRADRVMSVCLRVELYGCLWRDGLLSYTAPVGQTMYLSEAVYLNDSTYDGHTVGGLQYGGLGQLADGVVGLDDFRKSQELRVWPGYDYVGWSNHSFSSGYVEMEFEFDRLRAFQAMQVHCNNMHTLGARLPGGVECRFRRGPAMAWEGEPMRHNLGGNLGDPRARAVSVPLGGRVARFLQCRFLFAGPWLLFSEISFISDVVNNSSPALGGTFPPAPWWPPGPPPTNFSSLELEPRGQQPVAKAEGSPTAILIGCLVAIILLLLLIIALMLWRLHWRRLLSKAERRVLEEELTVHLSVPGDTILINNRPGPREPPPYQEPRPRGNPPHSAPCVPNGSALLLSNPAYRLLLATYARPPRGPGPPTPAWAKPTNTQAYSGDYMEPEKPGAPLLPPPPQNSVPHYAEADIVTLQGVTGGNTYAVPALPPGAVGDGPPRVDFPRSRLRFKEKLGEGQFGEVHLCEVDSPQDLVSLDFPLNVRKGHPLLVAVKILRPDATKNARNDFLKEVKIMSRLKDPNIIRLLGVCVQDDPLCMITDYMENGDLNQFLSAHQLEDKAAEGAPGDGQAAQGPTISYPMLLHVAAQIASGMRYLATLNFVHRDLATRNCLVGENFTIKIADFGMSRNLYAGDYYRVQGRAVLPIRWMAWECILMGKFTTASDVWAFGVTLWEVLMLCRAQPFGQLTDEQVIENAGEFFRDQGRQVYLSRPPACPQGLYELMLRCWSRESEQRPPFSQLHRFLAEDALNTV

Series 1 — concentration: 1 µM
SMILES: CN(C)C(=O)Cn1cc(-c2nc([C@@](C)(c3ccc(-c4cnc(N)nc4)cc3)C3CC3)no2)cn1
target | assay | remaining binding
AAK1 (Homo sapiens, UniProt Q2M2I8) | binding | 100%
CDC42BPB (Homo sapiens, UniProt Q9Y5S2) | cell-free assay, competition with immobilised ligand | 99%
FLT3 (Homo sapiens, UniProt P36888, D835H) | cell-free assay, competition with immobilised ligand | 86%
EGFR (Homo sapiens, UniProt P00533, T790M) | cell-free assay, competition with immobilised ligand | 100%
Tyrosine-protein kinase ABL1, non-phosphorylated (ABL1, Homo sapiens, UniProt P00519, F317L) | cell-free assay, competition with immobilised ligand | 66%
EGFR (Homo sapiens, UniProt P00533, del746-750) | cell-free assay, competition with immobilised ligand | 100%
TAOK3 (Homo sapiens, UniProt Q9H2K8) | cell-free assay, competition with immobilised ligand | 89%

Series 2 — effect on: enzyme activity; mode: inhibitor; concentration: 0.5 µM; reference: control
Target: Serine/threonine-protein kinase PLK3 (PLK3, Homo sapiens, UniProt Q9H4B4)
UniProt Q9H4B4, sequence (whole entry, looked up): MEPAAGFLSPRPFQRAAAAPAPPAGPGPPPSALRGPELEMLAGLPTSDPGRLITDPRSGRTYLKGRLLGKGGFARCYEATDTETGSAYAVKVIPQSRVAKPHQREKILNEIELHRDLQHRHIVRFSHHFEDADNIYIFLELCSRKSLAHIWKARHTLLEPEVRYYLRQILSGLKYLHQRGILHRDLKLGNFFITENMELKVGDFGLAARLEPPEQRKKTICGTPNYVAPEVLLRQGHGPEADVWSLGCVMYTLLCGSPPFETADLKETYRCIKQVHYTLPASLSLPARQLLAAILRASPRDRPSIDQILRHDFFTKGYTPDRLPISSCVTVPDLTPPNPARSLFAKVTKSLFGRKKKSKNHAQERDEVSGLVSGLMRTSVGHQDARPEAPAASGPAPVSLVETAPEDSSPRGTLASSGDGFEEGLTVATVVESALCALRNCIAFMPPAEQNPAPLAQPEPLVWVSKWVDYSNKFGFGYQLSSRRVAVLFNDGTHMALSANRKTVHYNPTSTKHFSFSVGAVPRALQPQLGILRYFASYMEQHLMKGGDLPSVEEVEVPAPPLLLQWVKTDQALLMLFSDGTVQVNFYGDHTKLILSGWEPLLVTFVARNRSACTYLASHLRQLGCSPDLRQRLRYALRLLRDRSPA
SMILES | remaining activity
O=C1c2ccccc2-c2n[nH]c3cccc1c23 | 99.6%
O=C(NC(NC(=S)Nc1ccc(F)c([N+](=O)[O-])c1)C(Cl)(Cl)Cl)C(c1ccccc1)c1ccccc1 (stereo not shown) | 94.4%
COc1cc2c(cc1OC)-c1[nH]nc(Nc3cccc(F)c3)c1C2 | 94.9%
c1ccc(-c2cnc(Nc3ccc(OCCN4CCCC4)cc3)s2)cc1 | 98%
C[C@@H]1CCN(C(=O)CC#N)C[C@@H]1N(C)c1ncnc2[nH]ccc12 | 99.1%
CCOc1nc(NC(=O)Cc2cc(OC)ccc2OC)cc(N)c1C#N | 101%
CN([C@@H](Cc1ccc(OS(=O)(=O)c2cccc3cnccc23)cc1)C(=O)N1CCN(c2ccccc2)CC1)S(=O)(=O)c1cccc2cnccc12 | 99.3%
O=C1C(Cl)=C(N2C(=O)CCC2=O)C(=O)c2ccccc21 | 96.6%

Series 3 — effect on: enzyme activity; mode: inhibitor; concentration: 1 µM
Structure (SMILES): CO[C@@H]1[C@H](N(C)C(=O)c2ccccc2)C[C@H]2O[C@]1(C)n1c3ccccc3c3c4c(c5c6ccccc6n2c5c31)C(=O)NC4
target | inhibition [%]
EGFR (Homo sapiens, UniProt P00533, G719S) | 0
TGFBR2 (Homo sapiens, UniProt P37173) | 0
NEK2 (Homo sapiens, UniProt P51955) | 3
TLK2 (Homo sapiens, UniProt Q86UE8) | 0
DDR1 (Homo sapiens, UniProt Q08345) | 0

Series 4 — mode: inhibitor; concentration: concentration not given; added: without ssDNA
Target: DNA polymerase theta, helicase domain (POLQ, Homo sapiens, UniProt O75417)
UniProt O75417, sequence (whole entry, looked up): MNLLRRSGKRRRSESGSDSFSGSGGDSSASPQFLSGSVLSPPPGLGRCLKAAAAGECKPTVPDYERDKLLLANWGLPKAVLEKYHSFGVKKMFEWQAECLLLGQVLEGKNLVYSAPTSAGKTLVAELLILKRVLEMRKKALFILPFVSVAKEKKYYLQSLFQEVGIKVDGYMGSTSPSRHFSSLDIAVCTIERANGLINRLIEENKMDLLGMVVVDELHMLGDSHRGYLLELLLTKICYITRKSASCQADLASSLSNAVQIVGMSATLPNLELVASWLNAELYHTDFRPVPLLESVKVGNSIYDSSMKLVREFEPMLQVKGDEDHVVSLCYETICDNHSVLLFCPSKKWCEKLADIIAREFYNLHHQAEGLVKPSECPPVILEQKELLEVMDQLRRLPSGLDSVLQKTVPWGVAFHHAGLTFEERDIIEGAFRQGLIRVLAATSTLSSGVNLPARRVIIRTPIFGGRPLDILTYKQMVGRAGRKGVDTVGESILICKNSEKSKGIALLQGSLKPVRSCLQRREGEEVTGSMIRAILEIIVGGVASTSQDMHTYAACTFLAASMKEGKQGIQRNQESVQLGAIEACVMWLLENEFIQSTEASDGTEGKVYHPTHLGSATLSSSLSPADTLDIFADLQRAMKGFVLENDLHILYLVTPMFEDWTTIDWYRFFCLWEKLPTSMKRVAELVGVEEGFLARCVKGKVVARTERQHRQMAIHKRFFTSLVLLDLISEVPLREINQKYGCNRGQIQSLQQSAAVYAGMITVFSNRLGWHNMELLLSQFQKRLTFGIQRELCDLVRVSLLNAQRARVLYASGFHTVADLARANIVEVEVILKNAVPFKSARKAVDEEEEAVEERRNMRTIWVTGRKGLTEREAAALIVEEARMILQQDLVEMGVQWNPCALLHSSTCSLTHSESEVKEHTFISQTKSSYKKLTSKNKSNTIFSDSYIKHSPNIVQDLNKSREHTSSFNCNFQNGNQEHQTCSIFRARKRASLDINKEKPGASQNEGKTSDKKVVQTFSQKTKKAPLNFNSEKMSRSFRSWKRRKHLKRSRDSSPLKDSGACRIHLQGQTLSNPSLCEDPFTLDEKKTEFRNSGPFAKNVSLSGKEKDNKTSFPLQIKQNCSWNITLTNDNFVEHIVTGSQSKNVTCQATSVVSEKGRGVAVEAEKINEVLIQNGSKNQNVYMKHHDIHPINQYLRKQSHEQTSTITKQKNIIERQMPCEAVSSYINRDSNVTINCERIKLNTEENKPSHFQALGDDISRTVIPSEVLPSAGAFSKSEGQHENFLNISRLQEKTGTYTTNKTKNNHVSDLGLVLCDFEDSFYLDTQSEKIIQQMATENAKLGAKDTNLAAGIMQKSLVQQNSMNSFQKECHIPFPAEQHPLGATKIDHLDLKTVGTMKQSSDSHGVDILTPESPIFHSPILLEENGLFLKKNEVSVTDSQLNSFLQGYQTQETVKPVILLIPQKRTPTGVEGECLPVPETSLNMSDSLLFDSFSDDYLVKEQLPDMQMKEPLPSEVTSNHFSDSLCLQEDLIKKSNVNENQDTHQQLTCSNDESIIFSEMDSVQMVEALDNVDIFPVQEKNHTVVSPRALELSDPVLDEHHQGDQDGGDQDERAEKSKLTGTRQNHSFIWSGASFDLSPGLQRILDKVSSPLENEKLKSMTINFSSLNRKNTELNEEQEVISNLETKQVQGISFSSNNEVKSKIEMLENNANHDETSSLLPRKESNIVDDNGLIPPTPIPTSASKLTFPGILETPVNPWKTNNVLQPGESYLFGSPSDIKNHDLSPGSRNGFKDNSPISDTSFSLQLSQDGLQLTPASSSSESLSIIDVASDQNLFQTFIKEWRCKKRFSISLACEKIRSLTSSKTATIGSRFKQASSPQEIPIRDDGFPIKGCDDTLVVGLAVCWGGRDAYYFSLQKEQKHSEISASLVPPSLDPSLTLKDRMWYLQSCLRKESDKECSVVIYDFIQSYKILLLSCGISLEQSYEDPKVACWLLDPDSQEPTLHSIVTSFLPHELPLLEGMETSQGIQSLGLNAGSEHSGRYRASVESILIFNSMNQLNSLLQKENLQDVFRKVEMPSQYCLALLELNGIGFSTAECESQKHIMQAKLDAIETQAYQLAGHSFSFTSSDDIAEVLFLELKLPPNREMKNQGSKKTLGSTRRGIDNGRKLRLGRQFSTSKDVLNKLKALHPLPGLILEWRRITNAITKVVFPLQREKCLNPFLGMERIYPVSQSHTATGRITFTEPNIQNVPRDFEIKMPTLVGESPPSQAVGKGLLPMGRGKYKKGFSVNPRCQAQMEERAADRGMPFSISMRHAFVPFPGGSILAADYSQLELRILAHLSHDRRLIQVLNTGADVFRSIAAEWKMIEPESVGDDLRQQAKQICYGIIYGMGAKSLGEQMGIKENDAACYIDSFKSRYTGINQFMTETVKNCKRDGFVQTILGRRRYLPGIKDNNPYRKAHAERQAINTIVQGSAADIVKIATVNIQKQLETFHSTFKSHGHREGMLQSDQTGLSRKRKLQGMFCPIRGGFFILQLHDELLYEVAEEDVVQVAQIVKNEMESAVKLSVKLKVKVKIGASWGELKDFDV
SMILES | remaining activity
CSc1ccc(/C=C/c2nc3ccccc3n2S(=O)(=O)c2ccc(Br)cc2)cc1 | 67.2% and 69.7%
CC(C)(C)c1ccc(S(=O)(=O)c2cnc(SCC(=O)Nc3ccc4c(c3)OCCO4)[nH]c2=O)cc1 | 76.1% and 72.7%
O=C(O)c1cccnc1Nc1cccc(C(F)(F)F)c1 | 37.8% and 36.3%
O=C(Nc1cc(-c2ccccc2)sc1C(=O)O)c1cccc(F)c1 | 40.7% and 38.9%
CCC(C)(Oc1ccc(C2(c3ccc(OC(C)(CC)C(=O)O)cc3)CCCCC2)cc1)C(=O)O (stereo not shown) | 129% and 127%

For quick reference, copied from above (series 1):
target | assay | remaining binding
FLT3 (Homo sapiens, UniProt P36888, D835H) | cell-free assay, competition with immobilised ligand | 86%
EGFR (Homo sapiens, UniProt P00533, T790M) | cell-free assay, competition with immobilised ligand | 100%
